Results gathered from unrelated publications.
Numbered parts are unrelated; each lists some results of a single study. pEC50: −log10 of the molar value.
UniProt Q9H4B4, sequence (whole entry, looked up): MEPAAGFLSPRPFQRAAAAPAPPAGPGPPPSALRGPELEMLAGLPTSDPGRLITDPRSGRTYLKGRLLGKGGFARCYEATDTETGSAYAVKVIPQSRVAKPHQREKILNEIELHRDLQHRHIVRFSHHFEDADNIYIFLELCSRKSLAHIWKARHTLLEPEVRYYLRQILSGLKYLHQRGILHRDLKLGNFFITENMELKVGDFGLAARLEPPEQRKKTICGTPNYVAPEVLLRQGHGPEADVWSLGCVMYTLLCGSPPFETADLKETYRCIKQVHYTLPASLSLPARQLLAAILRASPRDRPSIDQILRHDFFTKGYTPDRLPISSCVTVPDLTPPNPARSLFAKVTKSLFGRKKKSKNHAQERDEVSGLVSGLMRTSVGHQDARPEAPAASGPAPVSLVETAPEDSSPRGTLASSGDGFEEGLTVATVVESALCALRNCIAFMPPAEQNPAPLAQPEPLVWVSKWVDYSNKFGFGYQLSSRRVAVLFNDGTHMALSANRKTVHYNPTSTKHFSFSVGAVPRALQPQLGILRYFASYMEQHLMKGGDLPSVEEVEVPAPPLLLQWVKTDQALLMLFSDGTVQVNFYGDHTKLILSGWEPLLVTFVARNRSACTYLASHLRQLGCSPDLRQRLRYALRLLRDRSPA
UniProt Q7KZI7, sequence (whole entry, looked up): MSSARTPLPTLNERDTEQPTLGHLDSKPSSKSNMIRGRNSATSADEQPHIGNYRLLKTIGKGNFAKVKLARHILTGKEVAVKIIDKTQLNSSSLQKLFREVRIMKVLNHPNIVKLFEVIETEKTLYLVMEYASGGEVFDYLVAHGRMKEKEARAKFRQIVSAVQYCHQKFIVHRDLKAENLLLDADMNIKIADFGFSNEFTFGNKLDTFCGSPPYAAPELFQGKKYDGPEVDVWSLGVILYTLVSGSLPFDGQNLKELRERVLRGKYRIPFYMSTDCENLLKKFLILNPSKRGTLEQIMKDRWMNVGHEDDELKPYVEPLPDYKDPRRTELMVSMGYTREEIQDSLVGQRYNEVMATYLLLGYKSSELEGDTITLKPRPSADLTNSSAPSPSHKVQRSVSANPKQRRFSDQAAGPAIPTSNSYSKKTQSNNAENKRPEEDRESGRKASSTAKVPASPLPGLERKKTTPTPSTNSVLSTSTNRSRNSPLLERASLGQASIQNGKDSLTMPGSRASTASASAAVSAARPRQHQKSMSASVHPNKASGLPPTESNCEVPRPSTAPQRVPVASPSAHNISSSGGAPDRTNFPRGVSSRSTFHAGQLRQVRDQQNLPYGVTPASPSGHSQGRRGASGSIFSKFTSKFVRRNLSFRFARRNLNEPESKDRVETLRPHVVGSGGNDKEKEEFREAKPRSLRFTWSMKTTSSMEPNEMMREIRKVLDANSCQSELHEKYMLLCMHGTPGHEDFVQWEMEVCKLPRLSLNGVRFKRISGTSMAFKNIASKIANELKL

Study 1
Target: DNA polymerase theta, ATPase domain (POLQ, Homo sapiens, UniProt O75417)
UniProt O75417, sequence (whole entry, unmodified, looked up): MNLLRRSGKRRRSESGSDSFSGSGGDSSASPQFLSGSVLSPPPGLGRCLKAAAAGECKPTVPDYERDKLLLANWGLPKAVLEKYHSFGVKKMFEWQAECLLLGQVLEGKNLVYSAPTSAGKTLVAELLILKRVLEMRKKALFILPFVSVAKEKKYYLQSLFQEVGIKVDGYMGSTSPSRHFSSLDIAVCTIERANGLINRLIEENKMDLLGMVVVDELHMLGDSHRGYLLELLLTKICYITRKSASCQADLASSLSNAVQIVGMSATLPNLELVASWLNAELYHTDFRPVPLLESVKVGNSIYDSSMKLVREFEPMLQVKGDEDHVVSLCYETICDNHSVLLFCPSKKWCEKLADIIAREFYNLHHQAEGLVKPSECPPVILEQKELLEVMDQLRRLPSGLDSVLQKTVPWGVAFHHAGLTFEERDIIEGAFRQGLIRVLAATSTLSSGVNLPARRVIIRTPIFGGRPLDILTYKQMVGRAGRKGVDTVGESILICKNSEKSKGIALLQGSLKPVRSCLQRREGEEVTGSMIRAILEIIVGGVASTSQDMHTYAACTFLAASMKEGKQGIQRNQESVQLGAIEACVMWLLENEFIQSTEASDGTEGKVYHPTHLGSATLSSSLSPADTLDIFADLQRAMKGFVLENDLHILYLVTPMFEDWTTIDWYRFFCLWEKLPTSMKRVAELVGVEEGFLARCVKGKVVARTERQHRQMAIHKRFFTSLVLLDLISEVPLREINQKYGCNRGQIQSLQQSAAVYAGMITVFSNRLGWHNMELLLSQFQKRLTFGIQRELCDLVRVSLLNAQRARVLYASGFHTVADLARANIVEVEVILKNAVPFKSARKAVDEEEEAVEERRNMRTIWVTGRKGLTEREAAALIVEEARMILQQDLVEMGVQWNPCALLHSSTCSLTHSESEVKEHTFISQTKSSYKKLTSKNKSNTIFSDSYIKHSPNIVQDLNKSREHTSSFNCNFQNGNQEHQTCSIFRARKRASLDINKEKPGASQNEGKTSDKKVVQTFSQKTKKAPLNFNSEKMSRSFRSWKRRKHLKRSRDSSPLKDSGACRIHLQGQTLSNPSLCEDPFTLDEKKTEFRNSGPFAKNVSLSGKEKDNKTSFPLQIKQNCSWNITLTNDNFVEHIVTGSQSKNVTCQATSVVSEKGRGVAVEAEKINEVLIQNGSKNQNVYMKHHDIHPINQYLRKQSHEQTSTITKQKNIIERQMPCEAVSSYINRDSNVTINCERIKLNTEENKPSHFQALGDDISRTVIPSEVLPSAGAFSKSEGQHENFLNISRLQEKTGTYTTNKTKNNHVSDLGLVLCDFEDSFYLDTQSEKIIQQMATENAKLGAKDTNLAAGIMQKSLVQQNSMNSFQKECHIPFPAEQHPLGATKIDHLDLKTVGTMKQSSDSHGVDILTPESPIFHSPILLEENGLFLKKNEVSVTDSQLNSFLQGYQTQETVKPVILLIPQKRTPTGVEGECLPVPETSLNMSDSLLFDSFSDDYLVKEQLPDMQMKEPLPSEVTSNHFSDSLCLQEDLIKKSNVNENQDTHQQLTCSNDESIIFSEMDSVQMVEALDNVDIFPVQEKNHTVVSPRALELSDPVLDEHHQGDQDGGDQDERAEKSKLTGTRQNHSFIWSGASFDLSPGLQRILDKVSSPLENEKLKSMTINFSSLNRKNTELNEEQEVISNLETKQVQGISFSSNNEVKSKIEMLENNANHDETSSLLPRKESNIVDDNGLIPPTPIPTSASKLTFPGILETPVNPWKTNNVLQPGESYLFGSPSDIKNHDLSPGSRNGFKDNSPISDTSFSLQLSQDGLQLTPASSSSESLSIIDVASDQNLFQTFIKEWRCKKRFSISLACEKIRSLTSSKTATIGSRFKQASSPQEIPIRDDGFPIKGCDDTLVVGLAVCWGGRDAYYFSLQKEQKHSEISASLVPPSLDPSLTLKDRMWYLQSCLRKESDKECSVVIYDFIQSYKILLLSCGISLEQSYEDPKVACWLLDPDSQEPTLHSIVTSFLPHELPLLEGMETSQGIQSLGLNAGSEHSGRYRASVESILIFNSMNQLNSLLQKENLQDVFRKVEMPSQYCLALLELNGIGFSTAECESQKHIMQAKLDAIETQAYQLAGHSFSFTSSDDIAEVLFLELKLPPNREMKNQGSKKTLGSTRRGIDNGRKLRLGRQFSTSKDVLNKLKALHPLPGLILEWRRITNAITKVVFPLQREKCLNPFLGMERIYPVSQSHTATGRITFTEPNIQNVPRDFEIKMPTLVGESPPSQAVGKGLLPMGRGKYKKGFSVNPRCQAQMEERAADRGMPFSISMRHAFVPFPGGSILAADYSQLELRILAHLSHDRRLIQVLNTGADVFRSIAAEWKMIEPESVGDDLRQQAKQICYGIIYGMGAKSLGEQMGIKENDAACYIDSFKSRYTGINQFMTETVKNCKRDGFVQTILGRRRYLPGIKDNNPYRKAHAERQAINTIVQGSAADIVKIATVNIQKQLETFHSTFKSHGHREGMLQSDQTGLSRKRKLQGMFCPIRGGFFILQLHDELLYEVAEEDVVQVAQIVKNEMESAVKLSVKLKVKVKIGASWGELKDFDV
Effect on: enzyme activity
Mode: inhibitor
Tested at: 77 µM
Relative to: untreated
Structure (SMILES) | remaining activity
C/C(O)=C(\C#N)C(=O)Nc1ccc(C(F)(F)F)cc1 | 40.5%
CC(=O)OCC[N+](C)(C)C | 103%
CNc1nc(-c2ccc3c(N)n[nH]c3c2)cc(N2C[C@@H](C(=O)NC3CCCCC3)CC[C@H]2C)n1 | 94.3%
Nc1ncnc2c1c(-c1cccc(OCc3ccccc3)c1)cn2[C@H]1C[C@@H](CN2CCC2)C1 | 89.8%
COc1cc2ncnc(Nc3ccc(NC(=O)c4ccccc4)cc3)c2cc1OC | 90.6%
C#C[C@]1(O)CC[C@H]2[C@@H]3CCC4=C(CCC(=O)C4)[C@H]3CC[C@@]21C | 92.2%

Study 2
Structure (SMILES): C[C@@H]1CN(c2cc(-c3n[nH]c4ccc(OC5(C)CC5)cc34)ncn2)C[C@H](C)O1
TTK: Dual specificity protein kinase TTK (TTK, Homo sapiens, UniProt P33981)
UniProt P33981, sequence (whole entry, looked up): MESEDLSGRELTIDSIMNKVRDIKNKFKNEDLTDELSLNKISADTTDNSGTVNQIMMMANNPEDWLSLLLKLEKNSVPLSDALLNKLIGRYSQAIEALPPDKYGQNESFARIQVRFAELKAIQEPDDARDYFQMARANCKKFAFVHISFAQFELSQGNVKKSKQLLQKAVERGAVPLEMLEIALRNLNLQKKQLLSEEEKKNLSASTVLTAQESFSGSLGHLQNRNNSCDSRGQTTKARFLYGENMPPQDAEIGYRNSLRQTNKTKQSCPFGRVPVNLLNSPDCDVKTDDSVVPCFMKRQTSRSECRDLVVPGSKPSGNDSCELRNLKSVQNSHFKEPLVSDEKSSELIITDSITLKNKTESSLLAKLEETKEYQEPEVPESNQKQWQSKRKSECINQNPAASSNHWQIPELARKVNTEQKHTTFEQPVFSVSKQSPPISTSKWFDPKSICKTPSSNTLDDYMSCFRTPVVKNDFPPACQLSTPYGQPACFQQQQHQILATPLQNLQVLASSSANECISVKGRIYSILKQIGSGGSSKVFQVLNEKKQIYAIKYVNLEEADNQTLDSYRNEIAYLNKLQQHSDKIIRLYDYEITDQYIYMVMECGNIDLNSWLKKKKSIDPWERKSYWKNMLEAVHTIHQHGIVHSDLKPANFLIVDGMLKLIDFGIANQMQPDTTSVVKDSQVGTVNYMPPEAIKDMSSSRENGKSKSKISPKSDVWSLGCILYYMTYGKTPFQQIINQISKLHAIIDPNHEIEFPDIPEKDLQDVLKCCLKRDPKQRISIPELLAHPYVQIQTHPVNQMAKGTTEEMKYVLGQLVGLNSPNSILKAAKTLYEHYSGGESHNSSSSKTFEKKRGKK
target | effect on | method | pEC50
CLK2 (Homo sapiens, UniProt P49760) | target engagement in cells | BRET | 5.70
CLK4 (Homo sapiens, UniProt Q9HAZ1) | target engagement in cells | BRET | 4.62
TTK | target engagement | NanoBRET | < 4.30
TTK | target engagement in cells | BRET | < 4.30
MAP3K5 (Homo sapiens, UniProt Q99683) | target engagement in cells | BRET | 4.92

Study 3
SMILES: CN(C)c1ccc(C=C2C(=O)Nc3ccccc32)cc1
Effect on: enzyme activity
Mode: inhibitor
Tested at: 0.5 µM
Relative to: control
target | remaining activity
GRK4 (Homo sapiens, UniProt P32298) | 103%
DCLK2 (Homo sapiens, UniProt Q8N568) | 100%
PLK3 (Homo sapiens, UniProt Q9H4B4) | 97%
Cyclin-dependent kinase 1, with cyclin A (CDK1, Homo sapiens, UniProt P06493) | 96.9%
CAMK4 (Homo sapiens, UniProt Q16566) | 97.8%
DDR2 (Homo sapiens, UniProt Q16832) | 103%
RPS6KA4 (Homo sapiens, UniProt O75676) | 95.2%
MAPK14 (Homo sapiens, UniProt Q16539) | 92.4%
MARK2 (Homo sapiens, UniProt Q7KZI7) | 105%
MINK1 (Homo sapiens, UniProt Q8N4C8) | 79%
PRKG2 (Homo sapiens, UniProt Q13237) | 105%
KDR (Homo sapiens, UniProt P35968) | 94.3%
CLK3 (Homo sapiens, UniProt P49761) | 89.4%
MET (Homo sapiens, UniProt P08581) | 101%

Study 4
Compound: CN1CCN(C(=O)c2ccc(NC(=O)Nc3ccc(N(C)c4ccnc(Nc5ccc(CS(C)(=O)=O)cc5)n4)cc3)cc2)CC1
Effect on: binding
Tested at: 1 µM
target | method | remaining binding [%]
EPHB1 (Homo sapiens, UniProt P54762) | competition with immobilised ligand | 87
KIT (Homo sapiens, UniProt P10721, D816H) | – | 27
ACVRL1 (Homo sapiens, UniProt P37023) | competition with immobilised ligand | 79
EPHA5 (Homo sapiens, UniProt P54756) | competition with immobilised ligand | 99
BMX (Homo sapiens, UniProt P51813) | competition with immobilised ligand | 59

Repeated from above (study 2):
target | effect on | method | pEC50
CLK4 (Homo sapiens, UniProt Q9HAZ1) | target engagement in cells | BRET | 4.62
MAP3K5 (Homo sapiens, UniProt Q99683) | target engagement in cells | BRET | 4.92
CLK2 (Homo sapiens, UniProt P49760) | target engagement in cells | BRET | 5.70
